Results gathered from unrelated publications.
A part holds a random share of what one study measured.

Study 1 — technique: protein binding microarray; form: double-stranded DNA, one strand shown; matrix: in vitro; tested at: not given; baseline: not given; direction: higher = stronger binding
Target: Histone acetyltransferase KAT6A, winged helix 2, GST fusion (KAT6A, Homo sapiens, UniProt Q92794, residues 85-181)
Notes: 8-mer, flanks averaged, mean of 2 arrays, mostly near background
Construct (chain): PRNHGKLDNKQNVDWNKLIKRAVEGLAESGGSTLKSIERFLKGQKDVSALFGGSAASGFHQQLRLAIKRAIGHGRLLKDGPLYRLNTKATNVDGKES
With `ACGTGGAT` the E-score was -0.195.
With `AATGTCCA` the E-score was -0.0422.
The E-score of `CATCATGG` is reported as -0.0133.
`CTAGGAAG` gave an E-score of -0.0717.
With `CACTGGGG` the E-score was 0.065.
The E-score of `GATCATTA` is reported as -0.0905.
For `CGCTTCGC`, the E-score was 0.129.
`AGATGCCA` gave an E-score of -0.129.
The E-score of `CGCCGAAG` is reported as 0.207.
`CTAGCCCA` gave an E-score of -0.0969.
With `AGCCTAGC` the E-score was 0.0574.
For `CTACCTGA`, the E-score was -0.0569.
With `CAGTCTCA` the E-score was -0.00024.
`AGGTCATG` gave an E-score of -0.102.
`GGGCCACC` has an E-score of 0.248.
The E-score of `AATTTACG` is reported as -0.00208.
`ACGTTTTA` gave an E-score of -0.155.
`CCATTGCG` gave an E-score of 0.0711.

Study 2 — technique: protein-binding microarray; form: double-stranded DNA, one strand shown; matrix: in vitro; tested at: 2540 nM top; notes: 60-bp whole probe; added: salmon DNA 0.4 mg/ml; baseline: random background probes; direction: higher = stronger binding; all sequences stand within: GCCTAGCAC … GTCTTGATTCGCTTGACGCTGCTG
Target: Interferon regulatory factor 3, full length, phosphomimetic (IRF3, Homo sapiens, UniProt Q14653, residues 1-427, S386D/S396D/S398D/S402D/T404D/S405D)
Sequence of UniProt Q14653 (whole entry, unmodified, looked up): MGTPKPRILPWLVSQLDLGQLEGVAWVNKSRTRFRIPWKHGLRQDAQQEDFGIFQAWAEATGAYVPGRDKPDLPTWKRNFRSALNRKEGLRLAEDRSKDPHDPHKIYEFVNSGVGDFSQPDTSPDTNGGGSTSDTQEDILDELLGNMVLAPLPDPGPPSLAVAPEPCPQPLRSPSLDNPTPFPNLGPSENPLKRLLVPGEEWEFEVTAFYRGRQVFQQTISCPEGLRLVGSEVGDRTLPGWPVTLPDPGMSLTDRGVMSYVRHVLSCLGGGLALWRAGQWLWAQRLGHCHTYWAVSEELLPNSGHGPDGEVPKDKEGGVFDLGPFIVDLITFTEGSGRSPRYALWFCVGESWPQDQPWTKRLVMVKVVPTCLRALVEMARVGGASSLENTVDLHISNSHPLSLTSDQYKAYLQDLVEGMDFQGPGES
For `GACTAACTGAGTTTCGAGACGTGCTAG`, “fitted relative affinity” read 1.3 z-score.
`GACGATTTCGGGTTACGAGACGTGCTA` — result for “fitted relative affinity”: 2.41 z-score.
For `TTAGGGTTCGGACTGGGTTAGTGCTAG`, “fitted relative affinity” read -0.122 z-score.
`CTTTTTAGAAATTTCTTTCTGTGCTAG` — result for “fitted relative affinity”: 4.29 z-score.
Under “fitted relative affinity”, `GACGATTTCAGTTTGGAGACGTGCTAG` is recorded as 2.05 z-score.
`TTGTTTTTTGGTTTCTGGTTGTGCTAG` — result for “fitted relative affinity”: 2.26 z-score.
`TTAGGTATCGGACTGTGTTAGTGCTAG`: “fitted relative affinity” 1.31 z-score.
`TTACGTTTCGGTATCGGTTAGTGCTAG`: “fitted relative affinity” 7.62 z-score.
`TCAATTTTTACATTATTACTGTGCTAG`: “fitted relative affinity” 0.747 z-score.
Under “fitted relative affinity”, `GACAGTATCGGGACTGGGGACGTGCTA` is recorded as 1.72 z-score.
`TTAAATATCAGTATCGATTAGTGCTAG` — result for “fitted relative affinity”: 2.17 z-score.
For `CTAGGTCTCGGTCTCGGTTAGTGCTAG`, “fitted relative affinity” read 1.11 z-score.
Under “fitted relative affinity”, `TCATCACTCTAATCTCACACTGTGCTA` is recorded as 0.383 z-score.
Under “fitted relative affinity”, `GACGAACTGGGGTTTCGTGACGTGCTA` is recorded as -0.0385 z-score.
`TTAGGTTTCAACTATCGGTTAGTGCTA`: “fitted relative affinity” 1.18 z-score.
For `GGCGGTATCGACTATCGGGACGTGCTA`, “fitted relative affinity” read 0.55 z-score.
For `GAACATACTAGTTTCCATTTGTGCTAG`, “fitted relative affinity” read 6.35 z-score.
For `TTAGGACTGCTTCCCCTTTAGTGCTAG`, “fitted relative affinity” read 0.723 z-score.
`TCATCTCTAATTTTGAGACTGTGCTAG` — result for “fitted relative affinity”: 0.994 z-score.
Under “fitted relative affinity”, `TTAGGTTTACTTATCCTTTAGTGCTAG` is recorded as 1.84 z-score.
Under “fitted relative affinity”, `GACGGTATCGGGTTTCGGGAAGTGCTA` is recorded as 3.23 z-score.
`TTATGTATCGGTCTCGGTTAGTGCTAG`: “fitted relative affinity” 4.75 z-score.
`TTCCAATTCTTTTTATGCTTGTGCTAG`: “fitted relative affinity” 2.32 z-score.
`TTAGAACTTAGTCTCGATTAGTGCTAG`: “fitted relative affinity” 0.0217 z-score.

Study 3 — technique: RNA Bind-n-Seq; form: RNA; matrix: in vitro; tested at: 365 nM; baseline: no-protein control; direction: higher = stronger binding
Target: RNA binding protein fox-1 homolog 2, RRM domain, GST-SBP tag (RBFOX2, Homo sapiens, UniProt O43251-10, residues 100-194)
Notes: natural RNA segment, single round, ends assumed
Residues (chain): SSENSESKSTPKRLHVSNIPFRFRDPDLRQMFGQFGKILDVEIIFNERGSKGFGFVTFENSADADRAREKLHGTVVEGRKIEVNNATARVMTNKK
Under “RBNS enrichment (R)”, `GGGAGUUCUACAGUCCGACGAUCUCAGUUACAUACAAUUUGUUUAAUGAAAUGUCAUGGCUCUGUUCAUAUUUUUGUCUUGUUCUUCCAAUUGGUAUAUACAACUUUCAGAGCCUCUUGUAUUUGGAAGGCUGUGGAAUUCUCGGGUGCCAA` is recorded as 0.543.
`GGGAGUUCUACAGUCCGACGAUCUGUCUUCUUCUGGCCCUGGGUUUAUACCAGGAAAGCCAUGCCAGAAUUACCAAAUAUGAAGUAUGAAUGUCUUACCCACGGUGAGGCUCUGCCUCCUUCUCUCUGCCUGGUGGAAUUCUCGGGUGCCAA` — result for “RBNS enrichment (R)”: 0.309.
`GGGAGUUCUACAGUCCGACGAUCGCCCUACAGAGGUCUCUGCCGGCUCUUUCCUUGCUCAACCAUGGCUGAAGGAAACCAGUGCAACAGCACUGGCUCUCUCCAGGAUCCAGAAGGGGUUUGGUCUGGGACUUUGGAAUUCUCGGGUGCCAA` — result for “RBNS enrichment (R)”: 0.264.
`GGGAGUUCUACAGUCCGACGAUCCUUUGGUUAUUCAUACGGAAUUGAUGAUGGAAAAGCAACUGGUUGUCUUCUAAUUGUCUUUGUCUAGAUGGAAACUGAACCUUAGCAGAUGAAUAAACCCUGAAAAGGUCUGGAAUUCUCGGGUGCCAA` — result for “RBNS enrichment (R)”: 0.279.
`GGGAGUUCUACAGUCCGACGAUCAAAAUAUACAAUCAAGAUAUUUCGUCUCAUAUUAAAAGAGAAAUCUCAAUCACAGUGUUGGCUUUUAUUUGGAUUUUGCUCAUCUCGGUCUUUGUUUGGAAACUCCCUCAUGGAAUUCUCGGGUGCCAA` — result for “RBNS enrichment (R)”: 0.458.
Under “RBNS enrichment (R)”, `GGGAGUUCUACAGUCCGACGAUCAACUGAAGAGAGUGGAGAGAAUAAAGAAGUGAACUUUCAUUCAUGUCUGCUACUUUGACCUCAUAAAGAAAUCUGCAACACAGAUGAAACCAGUCUGUGUGGCCAAGCUGUGGAAUUCUCGGGUGCCAA` is recorded as 0.316.
For `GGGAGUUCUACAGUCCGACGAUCGUGAGAUAAUUUCGGUUCAGUAAAUUGGCCAAUCUUUUUAUUUUUCUAAGACACAGAAAUGUAUUUAAUAAAAACCUCGAGAGAGUGAUGGGUGGAACCCCUUCUCCUUGUGGAAUUCUCGGGUGCCAA`, “RBNS enrichment (R)” read 0.573.
Under “RBNS enrichment (R)”, `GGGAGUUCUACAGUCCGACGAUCUUCUGGCCUCUGCCUGGGACAGUAAAGGAUGGAGGAUCAGGCCUGGAGCCCCAGCCCCACCUUAGCCCUGCUGAGGCUCCAUGGCUUCUCCACUUCUUCUCAUGUGACCUUGGAAUUCUCGGGUGCCAA` is recorded as 0.442.
`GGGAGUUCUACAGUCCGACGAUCAUGUAUAAAAUUUAAAAAAACAGACUCCCAUUUCUUAAAAACGGAUAAGUUUGAAAGGAAACUGCUAUUGAACUUAAGCAUCUCUAGCAGAGCAAUUUGAUCAGUAUAUAUGGAAUUCUCGGGUGCCAA` — result for “RBNS enrichment (R)”: 0.415.
`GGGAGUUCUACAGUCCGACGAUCCUAAUCAUGGAUUUUUUGAACAUGUUAUUGCAGUGAUUCUCAAAUUAACUGUAUUGGUGUAAGAGUUUUGUCAUUAAGUGUUUAAGUGUUAUUCUGAAUUUUCUACCUUAUGGAAUUCUCGGGUGCCAA`: “RBNS enrichment (R)” 0.458.
`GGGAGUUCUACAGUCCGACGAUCCCGUGUGAGCAGACGCUCAGAACAGAGCCCUUGGCCCUUCGAGUUCUUUCUUACGAGUUUGCCGUUCUCACUUCUGUGGGCUCCUAUACCUUGAGUGGGAUGAGUCUUAGUGGAAUUCUCGGGUGCCAA`: “RBNS enrichment (R)” 0.434.
For `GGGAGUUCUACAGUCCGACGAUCGGAAUCUCAAACUCCCUUUGGCCCUGAACCAGGGCCAGAUAAGGAACAGCUCGGGCCACUCUUCUGAAGGCCAACGUGGAGGAAAGGGAGCAGCCAGCCAUUUGGGAGAAUGGAAUUCUCGGGUGCCAA`, “RBNS enrichment (R)” read 0.375.

Study 4 — technique: aptamer microarray, sandwich; form: DNA with 2'F-ANA; matrix: in vitro; tested at: 200 nM; added: Cy3 exosite-II aptamer, 400 nM; direction: higher = stronger binding; sequence: GGTTGGTGTGGTTGG
Target: Prothrombin, mature alpha-thrombin (F2, Homo sapiens, UniProt P00734)
Notes: whole 15-mer aptamer, many near background
`2'F-ANA at 1 7 8 10 12 14 15` — result for “mean fluorescence intensity”: 49 a.u.
`2'F-ANA at 1 3 6 10 11 12 14` — result for “mean fluorescence intensity”: 91.4 a.u.
Under “mean fluorescence intensity”, `2'F-ANA at 2 6 8 11 12 13 14` is recorded as 149 a.u.
For `2'F-ANA at 2 3 8 11 13 14 15`, “mean fluorescence intensity” read 356 a.u.
`2'F-ANA at 1 3 4 5 6 9 13 14`: “mean fluorescence intensity” 45.9 a.u.
`2'F-ANA at 1 2 5 6 7 8 9 10 11 13 14`: “mean fluorescence intensity” 55.8 a.u.
For `2'F-ANA at 1 3 4 7 8 9 11 14 15`, “mean fluorescence intensity” read 70.8 a.u.
`2'F-ANA at 1 4 5 6 7 9 10 15` — result for “mean fluorescence intensity”: 64.4 a.u.
For `2'F-ANA at 1 3 5 6 11 12`, “mean fluorescence intensity” read 90.4 a.u.
`2'F-ANA at 3 4 6 7 9 10 13`: “mean fluorescence intensity” 220 a.u.
`2'F-ANA at 2 3 4 5 7 14`: “mean fluorescence intensity” 48.8 a.u.
`2'F-ANA at 1 2 4 7 8 9 10 11 12 15`: “mean fluorescence intensity” 73 a.u.
For `2'F-ANA at 2 3 4 5 9 15`, “mean fluorescence intensity” read 84.9 a.u.
`2'F-ANA at 2 4 5 6 7 8 9 13 14` — result for “mean fluorescence intensity”: 45.7 a.u.
`2'F-ANA at 2 3 4 7 8 10 15` — result for “mean fluorescence intensity”: 303 a.u.
`2'F-ANA at 4 5 7 10 11 12 13 14 15`: “mean fluorescence intensity” 47.1 a.u.
`2'F-ANA at 1 3 5 7 8 12 13`: “mean fluorescence intensity” 100 a.u.
`2'F-ANA at 3 4 6 9 10 11 13 15` — result for “mean fluorescence intensity”: 185 a.u.
For `2'F-ANA at 4 5 8 9 12 13 14 15`, “mean fluorescence intensity” read 44.8 a.u.
Under “mean fluorescence intensity”, `2'F-ANA at 3 5 7 9 10 11 12 14 15` is recorded as 57 a.u.
`2'F-ANA at 3 7 9 10 13 14`: “mean fluorescence intensity” 419 a.u.
`2'F-ANA at 1 4 10 11 12 13 14 15` — result for “mean fluorescence intensity”: 76.1 a.u.
`2'F-ANA at 2 3 4 5 6 7 8 10 13` — result for “mean fluorescence intensity”: 49 a.u.
`2'F-ANA at 1 4 11 13 14 15` — result for “mean fluorescence intensity”: 50.1 a.u.
`2'F-ANA at 1 3 4 6 7 8 9 10 11 13 14`: “mean fluorescence intensity” 52.6 a.u.

A few entries again (study 1):
The E-score of `AATTTACG` is reported as -0.00208.
For `CTACCTGA`, the E-score was -0.0569.
`CTAGGAAG` gave an E-score of -0.0717.
With `CACTGGGG` the E-score was 0.065.
The E-score of `CATCATGG` is reported as -0.0133.
With `AGCCTAGC` the E-score was 0.0574.
For `CGCTTCGC`, the E-score was 0.129.
`CTAGCCCA` gave an E-score of -0.0969.
`CCATTGCG` gave an E-score of 0.0711.
With `CAGTCTCA` the E-score was -0.00024.
With `AATGTCCA` the E-score was -0.0422.
